Measured values gathered from unrelated publications.
Lines come from different studies, so protocols differ. ± gives the spread as reported.

Compound | assay | system | setting | scale | measurement | result
CC(C)C[C@H](NC(=O)[C@@H]1CCCN1C(=O)[C@H](CCCCN)NC(=O)[C@@H](N)CO)C(=O)N1CCC[C@H]1C(=O)N[C@@H](CCC(=O)O)C(=O)N[C@H](C(=O)N[C@H](C(=O)N[C@@H](CC(=O)O)C(=O)N[C@@H](CCC(=O)O)C(=O)N[C@@H](Cc1ccc(O)cc1)C(=O)N[C@@H](Cc1cn(CCOCCOCCOCCNC(=O)CCc2ccc(O)c(CN(CCN(CC(=O)O)Cc3cc(CCC(=O)NCCCC[C@H](NC(=O)N[C@@H](CCC(=O)O)C(=O)O)C(=O)O)ccc3O)CC(=O)O)c2)nn1)C(=O)O)[C@@H](C)O)C(C)C [gallium-68 labelled] | – | NMRI nu/nu mice, LNCaP tumour, blood | 10 MBq, high molar activity | – | standardized uptake value | 0.16 g/g
N=C(N)NCCC[C@@H]1NC(=O)[C@H](CCCCNC(=O)CCOCCOCCOCCOCCNC(=O)CC[C@H](NC(=O)CCOCCOCCOCCOCCNC(=O)CC[C@H](NC(=O)CN2CCN(CC(=O)O)CCN(CC(=O)O)CCN(CC(=O)O)CC2)C(=O)NCCOCCOCCOCCOCCC(=O)N[C@@H](CCC(=O)NCCOCCOCCOCCOCCC(=O)NCCCC[C@@H]2NC(=O)[C@@H](Cc3ccccc3)NC(=O)[C@H](CC(=O)O)NC(=O)CNC(=O)[C@H](CCCNC(=N)N)NC2=O)C(=O)NCCOCCOCCOCCOCCC(=O)NCCCC[C@@H]2NC(=O)[C@@H](Cc3ccccc3)NC(=O)[C@H](CC(=O)O)NC(=O)CNC(=O)[C@H](CCCNC(=N)N)NC2=O)C(=O)NCCOCCOCCOCCOCCC(=O)NCCCC[C@@H]2NC(=O)[C@@H](Cc3ccccc3)NC(=O)[C@H](CC(=O)O)NC(=O)CNC(=O)[C@H](CCCNC(=N)N)NC2=O)NC(=O)[C@@H](Cc2ccccc2)NC(=O)[C@H](CC(=O)O)NC(=O)CNC1=O [indium-111 labelled] | – | athymic nude mice, female, U-87 MG glioma xenograft, U-87 MG tumour | intravenous, 3 µCi, 24 h | – | tissue uptake | 6.86 ± 1.87 %ID/g
CCCC[C@H](NC(=O)CCCCCCCNC(=O)c1ccc(NN)nc1)C(=O)N[C@H]1CC(=O)NCCCC[C@@H](C(N)=O)NC(=O)[C@H](Cc2c[nH]c3ccccc23)NC(=O)[C@H](CCCNC(=N)N)NC(=O)[C@@H](Cc2ccccc2)NC(=O)[C@H](Cc2c[nH]cn2)NC1=O [technetium-99m labelled] | – | B16/F1 melanoma-bearing C57 mice | 2 h post-injection | – | urinary clearance | ~88 % injected activity
CCCC[C@H](NC(=O)CNC(=O)CNC(=O)c1ccc(NN)nc1)C(=O)N[C@H]1CC(=O)NCCCC[C@@H](C(N)=O)NC(=O)[C@H](Cc2c[nH]c3ccccc23)NC(=O)[C@H](CCCNC(=N)N)NC(=O)[C@@H](Cc2ccccc2)NC(=O)[C@H](Cc2c[nH]cn2)NC1=O [technetium-99m labelled] | – | C57 mouse, B16/F1 melanoma-bearing | intravenous, 4 h | relative to: tumour over liver | tissue uptake ratio | 22.1
CC(=O)N[C@H](C(=O)N[C@@H](CCCCNC(=O)CCC(=O)OC[C@@H]1O[C@H](n2ccc(N)nc2=O)CS1)C(=O)N[C@H](C(=O)N[C@@H](CCCCNC(=O)CCC(=O)OC[C@@H]1O[C@H](n2ccc(N)nc2=O)CS1)C(=O)N[C@H](C(=O)N[C@@H](CCCCNC(=O)CCC(=O)OC[C@@H]1O[C@H](n2ccc(N)nc2=O)CS1)C(=O)N[C@@H](CCC(=O)O)C(=O)N[C@@H](CCC(=O)O)C(=O)N[C@@H](CCC(=O)O)C(N)=O)C(C)C)C(C)C)C(C)C | item: white cells, neutrophils, lymphocytes, monocytes | mouse | – | – | blood cell counts | no effect
N=C(N)NCCC[C@@H]1NC(=O)[C@H](CCCCNC(=O)CC[C@H](NC(=O)CCOCCOCCOCCOCCNC(=O)CC[C@H](NC(=O)CN2CCN(CC(=O)O)CCN(CC(=O)O)CCN(CC(=O)O)CC2)C(=O)NCCOCCOCCOCCOCCC(=O)N[C@@H](CCC(=O)NCCCC[C@@H]2NC(=O)[C@@H](Cc3ccccc3)NC(=O)[C@H](CC(=O)O)NC(=O)CNC(=O)[C@H](CCCNC(=N)N)NC2=O)C(=O)NCCCC[C@@H]2NC(=O)[C@@H](Cc3ccccc3)NC(=O)[C@H](CC(=O)O)NC(=O)CNC(=O)[C@H](CCCNC(=N)N)NC2=O)C(=O)NCCCC[C@@H]2NC(=O)[C@@H](Cc3ccccc3)NC(=O)[C@H](CC(=O)O)NC(=O)CNC(=O)[C@H](CCCNC(=N)N)NC2=O)NC(=O)[C@@H](Cc2ccccc2)NC(=O)[C@H](CC(=O)O)NC(=O)CNC1=O [indium-111 labelled] | – | athymic nude mice, female, U-87 MG glioma xenograft, U-87 MG tumour | intravenous, 3 µCi, 0.5 h | – | tissue uptake | 13 ± 5.99 %ID/g
CSCC[C@H](NC(=O)[C@H](CC(C)C)NC(=O)[C@H](Cc1c[nH]cn1)NC(=O)CNC(=O)[C@@H](NC(=O)[C@H](C)NC(=O)[C@H](Cc1c[nH]c2ccccc12)NC(=O)[C@H](CCC(N)=O)NC(=O)CCCCCNC(=O)CNC(=O)CNC(=O)CNC(=O)CSC(C)=O)C(C)C)C(N)=O [technetium-99m labelled] | – | Swiss mouse, kidney | intravenous, 18.5 MBq, 90 min | – | tissue uptake | 0.62 ± 0.01 %ID/g
N=C(N)NCCC[C@@H]1NC(=O)[C@H](CCCCNC(=O)CNC(=O)CNC(=O)CNC(=O)CC[C@H](NC(=O)CCOCCOCCOCCOCCNC(=O)CC[C@H](NC(=O)CN2CCN(CC(=O)O)CCN(CC(=O)O)CCN(CC(=O)O)CC2)C(=O)NCCOCCOCCOCCOCCC(=O)N[C@@H](CCC(=O)NCC(=O)NCC(=O)NCC(=O)NCCCC[C@@H]2NC(=O)[C@@H](Cc3ccccc3)NC(=O)[C@H](CC(=O)O)NC(=O)CNC(=O)[C@H](CCCNC(=N)N)NC2=O)C(=O)NCC(=O)NCC(=O)NCC(=O)NCCCC[C@@H]2NC(=O)[C@@H](Cc3ccccc3)NC(=O)[C@H](CC(=O)O)NC(=O)CNC(=O)[C@H](CCCNC(=N)N)NC2=O)C(=O)NCC(=O)NCC(=O)NCC(=O)NCCCC[C@@H]2NC(=O)[C@@H](Cc3ccccc3)NC(=O)[C@H](CC(=O)O)NC(=O)CNC(=O)[C@H](CCCNC(=N)N)NC2=O)NC(=O)[C@@H](Cc2ccccc2)NC(=O)[C@H](CC(=O)O)NC(=O)CNC1=O [indium-111 labelled] | – | female athymic nude mice, kidney | intravenous, 3 µCi, 72 h, U-87 MG glioma xenograft | – | tissue uptake | 0.85 ± 0.09 %ID/g
CC(=O)O[C@H]1C(=O)[C@@]2(C)[C@H]([C@H](OC(=O)c3ccccc3)[C@]3(O)C[C@H](OC(=O)[C@H](OC(=O)CCC(=O)NCCCC[C@@H](NC(=O)[C@@H](Cc4ccccc4)NC(=O)[C@@H](Cc4ccccc4)NC(=O)Cc4ccc5ccccc5c4)C(=O)N[C@H](Cc4ccc(O)cc4)C(=O)O)[C@@H](NC(=O)c4ccccc4)c4ccccc4)C(C)=C1C3(C)C)[C@]1(OC(C)=O)CO[C@@H]1C[C@@H]2O | TEM | hydrogel | pH 7.4, together with: alkaline phosphatase 1.0 U/mL | – | nanofiber width | 9 ± 2 nm

Excerpt of the above:
Compound | assay | system | setting | scale | measurement | result
N=C(N)NCCC[C@@H]1NC(=O)[C@H](CCCCNC(=O)CNC(=O)CNC(=O)CNC(=O)CC[C@H](NC(=O)CCOCCOCCOCCOCCNC(=O)CC[C@H](NC(=O)CN2CCN(CC(=O)O)CCN(CC(=O)O)CCN(CC(=O)O)CC2)C(=O)NCCOCCOCCOCCOCCC(=O)N[C@@H](CCC(=O)NCC(=O)NCC(=O)NCC(=O)NCCCC[C@@H]2NC(=O)[C@@H](Cc3ccccc3)NC(=O)[C@H](CC(=O)O)NC(=O)CNC(=O)[C@H](CCCNC(=N)N)NC2=O)C(=O)NCC(=O)NCC(=O)NCC(=O)NCCCC[C@@H]2NC(=O)[C@@H](Cc3ccccc3)NC(=O)[C@H](CC(=O)O)NC(=O)CNC(=O)[C@H](CCCNC(=N)N)NC2=O)C(=O)NCC(=O)NCC(=O)NCC(=O)NCCCC[C@@H]2NC(=O)[C@@H](Cc3ccccc3)NC(=O)[C@H](CC(=O)O)NC(=O)CNC(=O)[C@H](CCCNC(=N)N)NC2=O)NC(=O)[C@@H](Cc2ccccc2)NC(=O)[C@H](CC(=O)O)NC(=O)CNC1=O [indium-111 labelled] | – | female athymic nude mice, kidney | intravenous, 3 µCi, 72 h, U-87 MG glioma xenograft | – | tissue uptake | 0.85 ± 0.09 %ID/g
CC(=O)O[C@H]1C(=O)[C@@]2(C)[C@H]([C@H](OC(=O)c3ccccc3)[C@]3(O)C[C@H](OC(=O)[C@H](OC(=O)CCC(=O)NCCCC[C@@H](NC(=O)[C@@H](Cc4ccccc4)NC(=O)[C@@H](Cc4ccccc4)NC(=O)Cc4ccc5ccccc5c4)C(=O)N[C@H](Cc4ccc(O)cc4)C(=O)O)[C@@H](NC(=O)c4ccccc4)c4ccccc4)C(C)=C1C3(C)C)[C@]1(OC(C)=O)CO[C@@H]1C[C@@H]2O | TEM | hydrogel | pH 7.4, together with: alkaline phosphatase 1.0 U/mL | – | nanofiber width | 9 ± 2 nm
